Published values of several laboratories.
Each line is one published result; not all experiments were run side by side. Converted amounts (≈) assume the structure as drawn.
Organism: Bacillus subtilis

For `C#CCOc1ccc(CN[C@@]2(C)C[C@H](O[C@H]3[C@H](Oc4c5cc6cc4Oc4ccc(cc4Cl)[C@@H](O)[C@@H](NC(=O)[C@@H](CC(C)C)NC)C(=O)N[C@@H](CC(N)=O)C(=O)N[C@H]6C(=O)N[C@H]4C(=O)N[C@H](C(=O)N[C@H](C(=O)NCC(N)=O)c6cc(O)cc(O)c6-c6cc4ccc6O)[C@H](O)c4ccc(c(Cl)c4)O5)O[C@H](CO)[C@@H](O)[C@@H]3O)O[C@@H](C)[C@H]2O)cc1OC`, the MIC was 0.125 µg/mL (≈ 0.0744 µM) (broth microdilution; 168, cation-adjusted Mueller-Hinton broth; 20 to 24 h, 37 °C, 0.002% polysorbate 80).
With `CC[C@H]1OC(=O)[C@H](C)[C@@H](OC(=O)c2ccc([N+](=O)[O-])cc2)[C@H](C)[C@@H](O[C@@H]2O[C@H](C)C[C@H](N(C)C)[C@H]2O)[C@](C)(OC)C[C@@H](C)C(=O)[C@H](C)[C@@H](O)[C@]1(C)O` the MIC was 16 µg/mL (≈ 21.7 µM) (microbial growth; DSM402).
For `CN[C@H](CC(C)C)C(=O)N[C@H]1C(=O)N[C@@H](CC(N)=O)C(=O)N[C@H]2C(=O)N[C@H]3C(=O)N[C@H](C(=O)N[C@H](C(=O)O)c4cc(O)cc(O)c4-c4cc3ccc4O)[C@H](O)c3ccc(c(Cl)c3)Oc3cc2cc(c3O[C@@H]2O[C@H](CO)[C@@H](O)[C@H](O)[C@H]2O[C@H]2C[C@](C)(NCc3ccc(OCc4cn(CCCCC(=O)N[C@H](C(=O)N[C@@H](CCN)C(=O)N[C@H]5CCNC(=O)[C@H]([C@@H](C)O)NC(=O)[C@H](CCN)NC(=O)[C@H](CCN)NC(=O)[C@H](CC(C)C)NC(=O)[C@@H](CC(C)C)NC(=O)[C@H](CCN)NC5=O)[C@@H](C)O)nn4)c(OC)c3)[C@H](O)[C@H](C)O2)Oc2ccc(cc2Cl)[C@H]1O`, the MIC was 0.25 µg/mL (≈ 0.0934 µM) (broth microdilution; 168, cation-adjusted Mueller-Hinton broth; 20 to 24 h, 37 °C, 0.002% polysorbate 80).
The MIC of `CC[C@H](C)[C@H](N)C1=N[C@H](C(=O)N[C@@H](CC(C)C)C(=O)N[C@H](CCC(=O)O)C(=O)N[C@H](C(=O)N[C@H]2CCCCNC(=O)[C@H](CC(N)=O)NC(=O)[C@@H](CC(=O)O)NC(=O)[C@H](Cc3c[nH]cn3)NC(=O)[C@@H](Cc3ccccc3)NC(=O)[C@H]([C@@H](C)CC)NC(=O)[C@@H](CCCN)NC2=O)[C@@H](C)CC)CS1` is reported as 32 µg/mL (≈ 22.5 µM) (168; 18 h, 37 °C, 0.3 mM ZnSO4 LB).
The MIC of `COc1c(NC(=O)c2ccc(NC(=O)c3ccc(NC(=O)[C@H](CC#N)NC(=O)c4ccc(NC(=O)/C(C)=C/c5ccc(O)cc5)cc4)cc3)c(OC)c2O)ccc(C(=O)O)c1O` is reported as 0.25 µg/mL (≈ 0.297 µM) (microbial growth, broth dilution; DSM10).
`CC(C)C[C@@H]1NC(=O)[C@@H](CC(C)C)NC(=O)[C@H](CCN)NC(=O)[C@@H](NC(=O)[C@H](CCN)NC(=O)[C@@H](N)[C@@H](C)O)CCNC(=O)[C@H]([C@@H](C)O)NC(=O)[C@H](CCN)NC(=O)[C@H](CCN)NC1=O` has an MIC of > 128 µg/mL (broth microdilution; 168, cation-adjusted Mueller-Hinton broth; 20 to 24 h, 37 °C, 0.002% polysorbate 80).
`COc1cc(C(=O)O)ccc1NC(=O)c1ccc(NC(=O)c2ccc(NC(=O)[C@H](Cc3c[nH]nn3)NC(=O)c3ccc(NC(=O)/C(C)=C/c4ccc(O)cc4)cc3)cc2)c(OC)c1` gave an MIC of 1 µg/mL (≈ 1.17 µM) (broth microdilution; DSM 10).
With `CC[C@H]1OC(=O)[C@H](C)[C@@H](O[C@H]2C[C@@](C)(OC)[C@@H](O)[C@H](C)O2)[C@H](C)[C@@H](O[C@@H]2O[C@H](C)C[C@H](N(C)C)[C@H]2O)[C@](C)(OC)C[C@@H](C)C(=O)[C@H](C)[C@@H](O)[C@]1(C)O` the MIC was 0.5 µg/mL (≈ 0.668 µM) (microbial growth; DSM402).
With `COc1cc(C(=O)Nc2ccc(C(=O)O)c(O)c2)ccc1NC(=O)c1ccc(NC(=O)[C@H](Cc2c[nH]nn2)NC(=O)c2ccc(NC(=O)/C(C)=C/c3ccc(O)cc3)cc2)cc1` the MIC was 2 µg/mL (≈ 2.38 µM) (broth microdilution; DSM 10).
The MIC of `CC[C@H]1OC(=O)[C@H](C)[C@@H](OC(=O)Cc2ccc(OC(F)(F)F)cc2)[C@H](C)[C@@H](O[C@@H]2O[C@H](C)C[C@H](N(C)C)[C@H]2O)[C@](C)(OC)C[C@@H](C)C(=O)[C@H](C)[C@@H](O)[C@]1(C)O` is reported as 4 µg/mL (≈ 5.05 µM) (microbial growth; DSM402).

A few entries again:
The MIC of `COc1c(NC(=O)c2ccc(NC(=O)c3ccc(NC(=O)[C@H](CC#N)NC(=O)c4ccc(NC(=O)/C(C)=C/c5ccc(O)cc5)cc4)cc3)c(OC)c2O)ccc(C(=O)O)c1O` is reported as 0.25 µg/mL (≈ 0.297 µM) (microbial growth, broth dilution; DSM10).
